Earlier results that unrelated publications cite.
Protocols differ between the studies behind these lines. pIC50: −log10 of the molar value. ≈ marks a conversion by molar mass, not a printed value.
Sequence of UniProt Q9BWU1 (whole entry, looked up): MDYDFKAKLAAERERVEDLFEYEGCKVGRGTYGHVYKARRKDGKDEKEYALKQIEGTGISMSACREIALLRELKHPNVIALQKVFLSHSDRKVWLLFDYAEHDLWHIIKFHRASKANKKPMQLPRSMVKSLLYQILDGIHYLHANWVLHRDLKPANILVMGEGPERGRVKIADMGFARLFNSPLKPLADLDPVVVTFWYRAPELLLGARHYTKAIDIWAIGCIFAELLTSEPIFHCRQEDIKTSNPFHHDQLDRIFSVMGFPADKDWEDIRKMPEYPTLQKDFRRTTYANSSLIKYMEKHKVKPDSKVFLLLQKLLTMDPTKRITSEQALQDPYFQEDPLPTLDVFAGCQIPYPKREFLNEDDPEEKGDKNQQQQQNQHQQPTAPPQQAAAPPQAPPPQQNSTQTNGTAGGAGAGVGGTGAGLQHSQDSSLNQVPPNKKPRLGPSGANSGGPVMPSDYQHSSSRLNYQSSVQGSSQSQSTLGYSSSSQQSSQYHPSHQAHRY

SMILES | tested on | assay | test system | conditions | scale | endpoint | value
CC(O)c1cc(C(=O)N[C@@H](C)Cn2ccc(-c3ccc(C#N)c(Cl)c3)n2)[nH]n1 (stereo partly drawn) | OATP1B3 | – | – | – | literature maximum | pIC50 | 4.41
Nc1cc(C(F)(F)F)c(-c2nc(N3CCOCC3)nc(N3CCOCC3)n2)cn1 | Cyclin-dependent kinase 19 (CDK19, Homo sapiens, UniProt Q9BWU1) | enzyme activity | – | 10 µM | relative to: untreated | remaining activity | 70%
COc1c(N2C[C@@H]3CCCN[C@@H]3C2)c(F)cc2c(=O)c(C(=O)O)cn(C3CC3)c12 | MATE2-K | inhibitor | – | – | – | pIC50 | 5.10 to 6.00
CS(=O)(=O)CCNCc1ccc(-c2ccc3ncnc(Nc4ccc(OCc5cccc(F)c5)c(Cl)c4)c3c2)o1 | P-glycoprotein human | efflux transport, inhibitor | MDCKII-MDR1 | added: [3H]digoxin | – | pIC50 | 5.41
N[C@@H]1c2cccnc2[C@H](OC(=O)N2CCC(n3c(=O)[nH]c4ncccc43)CC2)CC[C@H]1c1cccc(F)c1F | CYP2B6 (human) | – | human liver microsomes | – | – | pIC50 | < 4.40
COC(=O)N[C@H](C(=O)N1CCC[C@H]1c1nc(-c2ccc3c(c2)O[C@@H](c2ccccc2)n2c-3cc3cc(-c4c[nH]c([C@@H]5CCCN5C(=O)[C@@H](NC(=O)OC)C(C)C)n4)ccc32)c[nH]1)C(C)C | CYP2B6 | inhibitor | human liver microsomes | – | – | pIC50 | < 4.00
C=C[C@@H]1C[C@]1(NC(=O)[C@@H]1C[C@@H]2CN1C(=O)[C@H](C(C)(C)C)NC(=O)O[C@@H]1C[C@H]1CCCCCc1nc3ccc(OC)cc3nc1O2)C(=O)NS(=O)(=O)C1CC1 | OATP1B3 | – | – | – | literature minimum | pIC50 | 6.24
CNCc1cn(S(=O)(=O)c2cccc(F)c2)c(-c2ccc(F)cc2F)c1OC | MATE2-K | transporter uptake | – | – | – | pIC50 | 6.24
Cc1cccc(-c2[nH]c(CNc3ccccc3F)nc2-c2ccc3ncnn3c2)n1 | MDR1 | transport activity, inhibitor | – | – | – | pIC50 | 5.00
COc1cc([C@@H]2Oc3cc([C@H]4Oc5cc(O)cc(O)c5C(=O)[C@@H]4O)ccc3O[C@H]2CO)ccc1O | human OATP1B1 and OATP1B3 | inhibitor | – | – | – | pIC50 | 5.01 to 5.66
C=C[C@@H]1C[C@]1(NC(=O)[C@@H]1C[C@@H]2CN1C(=O)[C@H](C(C)(C)C)NC(=O)O[C@@H]1C[C@H]1CCCCCc1nc3ccc(OC)cc3nc1O2)C(=O)NS(=O)(=O)C1CC1 | UGT1A1 | inhibitor | human liver microsomes | – | – | pIC50 | 4.27
CN(C)C/C=C/C(=O)Nc1cc2c(Nc3ccc(F)c(Cl)c3)ncnc2cc1O[C@H]1CCOC1 | ABCB1 | – | A2780T | – | – | pIC50 | 5.70
CNC(C)C1CCC(N)C(OC2C(N)CC(N)C(OC3OCC(C)(O)C(NC)C3O)C2O)O1 (stereo not drawn) | Enterobacter cloacae | – | clinical isolate RKI-No_571/13 | – | – | MIC | 4 µg/mL (≈ 8.38 µM)
CC(F)(F)c1cc(F)ccc1-c1sc2cc(O)ccc2c1Oc1ccc(/C=C/C(=O)O)cc1 | UGT1A1 | inhibitor | – | unbound | – | pIC50 | 6.46
COC[C@H]1C[C@@H](c2ncc(-c3ccc4c(c3)COc3cc5c(ccc6nc([C@@H]7CC[C@H](C)N7C(=O)[C@@H](NC(=O)OC)C(C)C)[nH]c65)cc3-4)[nH]2)N(C(=O)[C@H](NC(=O)OC)c2ccccc2)C1 | OATP1B1 | – | – | – | literature minimum | pIC50 | 5.82
C=CC(=O)N1CCC[C@@H](n2nc(-c3ccc(Oc4ccccc4)cc3)c3c(N)ncnc32)C1 | ABCB1 (human) | – | K562/AO2 | – | – | pIC50 | < 5.60
OC(Cn1cncn1)(Cn1cncn1)c1ccc(F)cc1F | CYP2C18 | transport activity, inhibitor | – | – | – | pIC50 | 4.77
COc1cc(C2Oc3cc([C@H]4Oc5cc(O)cc(O)c5C(=O)[C@@H]4O)ccc3OC2CO)ccc1O (stereo partly drawn) | PXR | reporter gene, cell-based reporter | – | – | – | pIC50 | 3.87
Cc1ccc(C)c(OCCCC(C)(C)C(=O)O)c1 | OATP1B3 (SLCO1B3) OATP1B1 | – | – | literature geometric mean | – | pIC50 | 4.42
CC1(C)S[C@@H]2[C@H](NC(=O)[C@H](N)c3ccccc3)C(=O)N2[C@H]1C(=O)O | Escherichia coli | – | clinical isolate RKI-No_317/16 | – | – | MIC | > 16 µg/mL
CO[C@H]1/C=C/O[C@@]2(C)Oc3c(C)c(O)c4c(O)c(c(/C=N/N5CCN(C)CC5)c(O)c4c3C2=O)NC(=O)/C(C)=C\C=C\[C@H](C)[C@H](O)[C@@H](C)[C@@H](O)[C@@H](C)[C@H](OC(C)=O)[C@@H]1C | OATP1B1 | – | – | – | literature minimum | pIC50 | 6.66
C=C(C)[C@@H]1CC[C@]2(C)CC[C@]3(C)[C@H](CC[C@@H]4[C@@]5(C)CC[C@H](O)C(C)(C)[C@@H]5CC[C@]43C)[C@@H]12 | CYP2C11 (rat) | inhibitor | rat liver microsomes | – | – | pIC50 | < 4.00
CCC(C)n1ncn(-c2ccc(N3CCN(c4ccc(OCC5COC(Cn6cncn6)(c6ccc(Cl)cc6Cl)O5)cc4)CC3)cc2)c1=O (stereo not drawn) | OATP1B3 | – | – | – | literature minimum | pIC50 | 6.15
CO/N=C(\C(=O)N[C@@H]1C(=O)N2C(C(=O)O)=C(CSc3nc(=O)c(=O)[nH]n3C)CS[C@H]12)c1csc(N)n1 | CYP2J2 | enzyme activity, inhibitor | – | – | – | pIC50 | 4.57
